Results pooled from the literature.
Protocols differ between the studies behind these lines. Several values in a cell are separate wells, animals, samples, runs or records. ± gives the spread as reported.
rep nsp12 RdRp: Replicase polyprotein 1ab, nsp12 RdRp (rep, Severe acute respiratory syndrome coronavirus 2, UniProt P0DTD1)
rep papain-like protease: Replicase polyprotein 1ab, papain-like protease (rep, Severe acute respiratory syndrome coronavirus 2, UniProt P0DTD1)
Spike glycoprotein: Spike glycoprotein (Severe acute respiratory syndrome coronavirus 2, UniProt P0DTC2)
rep nsp13 helicase: Replicase polyprotein 1ab, nsp13 helicase (rep, Severe acute respiratory syndrome coronavirus 2, UniProt P0DTD1)
rep main protease: Replicase polyprotein 1ab, main protease (rep, Severe acute respiratory syndrome coronavirus 2, UniProt P0DTD1)

Nc1nc(F)nc2c1ncn2[C@@H]1O[C@H](COP(=O)(O)O)[C@@H](O)[C@@H]1O  EC50 (rep nsp12 RdRp; RdRp activity, inhibitor; HEK293T; 24 h, with: nsp7 and nsp8): 930 nM
CCC(C(=O)Nc1cc(NC2CCNC2)ccc1C)n1cc(Cl)cc2nc(SCc3ccc(F)cc3)nc1-2 (centres unmarked)  Kd (rep papain-like protease; binding): 166 ± 13 nM
Oc1cc(O)c2c(c1)O[C@H](c1cc(O)c(O)c(O)c1)[C@H](O)C2  Kd (Spike glycoprotein; binding, BLI): 63100 nM
CC[C@H](C)[C@H](NC(=O)[C@H](CC(C)C)NC(=O)[C@H](Cc1c[nH]c2ccccc12)NC(=O)[C@H](CCC(N)=O)NC(=O)[C@@H](NC(=O)[C@H](Cc1ccccc1)NC(=O)[C@H](C)NC(=O)[C@H](CCCCNC(=O)COCCOCCNC(=O)COCCOCCNC(=O)CC[C@H](NC(=O)CCCCCCCCCCCCCCCCCCC(=O)O)C(=O)O)NC(=O)[C@H](CCC(N)=O)NC(=O)[C@H](C)NC(=O)[C@@H](NC(=O)[C@H](CCCCN)NC(=O)[C@H](CC(=O)O)NC(=O)[C@H](CC(C)C)NC(=O)C(C)(C)NC(=O)[C@@H](NC(=O)[C@H](CO)NC(=O)[C@H](Cc1ccc(O)cc1)NC(=O)[C@H](CC(=O)O)NC(=O)[C@H](CO)NC(=O)[C@@H](NC(=O)[C@H](Cc1ccccc1)NC(=O)[C@@H](NC(=O)CNC(=O)[C@H](CCC(=O)O)NC(=O)C(C)(C)NC(=O)[C@@H](N)Cc1ccc(O)cc1)[C@@H](C)O)[C@@H](C)O)[C@@H](C)CC)[C@@H](C)CC)C(C)C)C(=O)N[C@@H](C)C(=O)NCC(=O)NCC(=O)N1CCC[C@H]1C(=O)N[C@@H](CO)C(=O)N[C@@H](CO)C(=O)NCC(=O)N[C@@H](C)C(=O)N1CCC[C@H]1C(=O)N1CCC[C@H]1C(=O)N1CCC[C@H]1C(=O)N[C@@H](CO)C(N)=O  serum amylase (healthy subjects, single ascending dose; 8.0 mg, baseline): 63.7 ± 19.2 U/L
CC1=NOC(=O)/C1=C\c1ccc(-c2ccc(Cl)cc2Cl)o1  IC50 (rep nsp13 helicase; helicase ATPase activity, inhibitor, Kinase-Glo luminescence): > 100000 nM
Nc1ncnc2c([C@@H]3N[C@H](CO)[C@@H](O)[C@H]3O)c[nH]c12  inhibition (Junin virus; viral replication; HeLa, Romero; 12.5 µM): 0%
CCC(C(=O)Nc1cc(NC2COC2)ccc1C)n1cc(F)cc2nc(SCc3ccc(F)cc3)nc1-2 (centres unmarked)  Kd (rep papain-like protease; binding): 496 ± 81 nM
CC[C@H](NC(=O)OCc1ccccc1)C(=O)N[C@H](C(=O)N[C@@H](CC(C)C)C(=O)N(C)N(C#N)CCC(N)=O)C(C)(C)C  Ki (rep main protease; enzyme activity, inhibitor): 23.5 nM
Nc1ncnc2c1c(I)cn2[C@@H]1O[C@H](CO)[C@@H](O)[C@H]1O  EC50 (Replicase polyprotein 1ab, nsp12 with nsp14/nsp10 (rep, Severe acute respiratory syndrome coronavirus 2, UniProt P0DTD1); RdRp activity, inhibitor, CoV-RdRp-Gluc reporter; HEK293T, SARS-CoV-2; with proofreading, with: nsp7, nsp8, nsp10 and nsp14): 1420 nM
CC(C)(C)c1ccc(N(Cc2cc(Cl)cs2)C(=O)Cc2cncc3ccccc23)cc1  Kd (rep main protease; binding, MST): 1900 nM
Nc1nc2c(ncn2[C@H]2C[C@H](O)[C@@H](CO)O2)c(=S)[nH]1  EC50 (rep nsp12 RdRp; RdRp activity, inhibitor; HEK293T; 24 h, with: nsp7 and nsp8): 1080 nM
OCC1(O)COc2cc(O)ccc2-c2cc(O)c(O)cc2C1 (centres unmarked)  Kd (Spike glycoprotein; binding, biolayer interferometry): 61100 nM
O=C(C1=C(O)C(=O)N(Cc2ccco2)C1c1cccc(Cl)c1)c1ccc2c(c1)OCCO2 (centres unmarked)  IC50 (rep nsp13 helicase; helicase ATPase activity, inhibitor, Kinase-Glo luminescence; 60 min, with: 2.5 µM ATP): 77000 nM
Cn1cnc(Cn2c(=O)[nH]/c(=N\c3cc4cn(C)nc4cc3Cl)n(Cc3cc(F)c(F)cc3F)c2=O)n1  anaemia TEAE, Severe severity (human, mild renal impairment; oral, 375 mg): 0%
C=CS(=O)(=O)N(c1ccc(C(C)(C)C)cc1)C(C(=O)NCCc1cccc(Cl)c1)c1cccnc1 (centres unmarked)  Ki (rep main protease; inhibitor, ITC, two-step reversible model): 2300 ± 300 nM
Nc1ccn([C@@H]2O[C@H](COP(=O)(O)OP(=O)(O)OP(=O)(O)O)[C@@H](O)[C@H]2O)c(=O)n1  Kd (Replicase polyprotein 1ab, nsp12 with nsp7/nsp8 (rep, Severe acute respiratory syndrome coronavirus 2, UniProt P0DTD1); nucleotide binding, substrate; templating base G): 58700 nM and 59000 nM
CN(C)c1ccc(N(Cc2cc(Cl)cs2)C(=O)Cc2cncc3ccccc23)cc1  Ki (rep main protease; enzyme activity, inhibitor): 2100 nM
Cc1[nH]c2ccccc2c1/C=C1/N=C(c2ccc(F)cc2)OC1=O  IC50 (rep nsp13 helicase; helicase ATPase activity, inhibitor, Kinase-Glo luminescence): > 150000 nM
O=C(O)c1cc(O)c(O)c(O)c1  Kd (rep main protease; microscale thermophoresis; 63 min): 1140 nM
O=C(O)c1ccccc1-c1c2cc(Br)c(=O)cc-2oc2[c]([Hg+])c(O)c(Br)cc12  Kd (rep main protease; binding, SPR; first site heterogeneous model): 1800 ± 10 nM
